{"data": "Assay results collected from several papers", "note": "Compare with care: the assays were run in different laboratories."}
{"Compound": "CS(=O)(=O)Nc1ncn(-c2cc(F)c(COc3ccc(OS(=O)(=O)F)cc3)c(F)c2)n1", "cell line": "HEK-293T", "CC50": "> 40 µM"}
{"Compound": "CC[C@H](C)[C@H](NC(=O)[C@H](CCCNC(=N)N)NC(=O)[C@@H](NC(=O)[C@H](CC(C)C)NC(=O)[C@H](Cc1c[nH]c2ccccc12)NC(=O)[C@H](Cc1ccc(O)cc1)NC(=O)[C@@H](NC(=O)[C@H](CO)NC(=O)[C@@H](NC(=O)[C@H](CCCNC(=N)N)NC(=O)[C@H](CCC(N)=O)NC(=O)[C@H](CCCNC(=N)N)NC(=O)[C@@H]1CCCN1C(=O)[C@H](CC(C)C)NC(=O)[C@H](CO)NC(=O)[C@@H](NC(=O)[C@H](CC(C)C)NC(=O)[C@@H]1CCCN1C(=O)[C@H](CCC(N)=O)NC(=O)[C@H](CCCCN)NC(=O)[C@H](Cc1c[nH]cn1)NC(=O)[C@H](CS)NC(=O)[C@H](CCCNC(=N)N)NC(=O)[C@H](CCCCN)NC(=O)[C@H](CO)NC(=O)[C@H](CC(C)C)NC(=O)[C@H](CO)NC(=O)[C@H](Cc1ccccc1)NC(=O)[C@H](CC(C)C)NC(=O)[C@H](CCCCN)NC(=O)[C@H](Cc1c[nH]cn1)NC(=O)[C@@H](NC(=O)[C@@H](NC(=O)[C@H](CCCCN)NC(=O)[C@H](CCC(N)=O)NC(=O)[C@H](C)NC(=O)[C@H](CCCCN)NC(=O)[C@H](CC(C)C)NC(=O)[C@H](Cc1ccccc1)NC(=O)[C@H](CC(C)C)NC(=O)[C@H](CCC(N)=O)NC(=O)[C@H](CCCCN)NC(=O)[C@@H](N)CCSC)[C@@H](C)CC)C(C)C)[C@@H](C)CC)[C@@H](C)O)[C@@H](C)O)[C@@H](C)O)C(=O)O", "cell line": "HaCaT", "observed": "cell viability", "method": "MTT", "CC50": "47.9 µM"}
{"Compound": "CC(C)(O)Cc1nc(N)[nH]c(=O)c1Br", "cell line": "CRFK", "observed": "cytotoxicity", "method": "MTS", "CC50": "> 100 µM"}
{"Compound": "CC(C)(C)OC(=O)N[C@H]1CCCCC/C=C\\[C@@H]2C[C@@]2(C(=O)NS(=O)(=O)C2CC2)NC(=O)[C@@H]2C[C@@H](OC(=O)N3Cc4cccc(F)c4C3)CN2C1=O", "cell line": "HEK293T", "observed": "cell viability", "method": "MTT", "time": "48 (unit not given)", "CC50": "31.1 µM"}
{"Compound": "CCCCc1nc(N)[nH]c(=O)c1Br", "cell line": "CRFK", "observed": "cytotoxicity", "method": "MTS", "CC50": "> 100 µM"}
{"Compound": "CN1CCC(Cc2cccc(CNC3(c4ccc(F)cc4O)CCCC3)c2)CC1", "cell line": "BT-474", "method": "CyQuant", "CC50": "inactive"}
{"Compound": "CC[C@H](C)[C@H](NC(=O)[C@H](C)NC(=O)[C@H](CCCCN)NC(=O)[C@H](CC(N)=O)NC(=O)[C@@H](NC(=O)[C@H](CCCCN)NC(=O)[C@H](CCCCN)NC(=O)[C@H](CC(C)C)NC(=O)[C@@H](NC(=O)[C@H](CCCCN)NC(=O)CNC(=O)[C@@H](NC(=O)CNC(=O)[C@H](CC(N)=O)NC(=O)[C@@H](NC(=O)CNC(=O)[C@H](Cc1ccc(O)cc1)NC(=O)[C@H](CCCNC(=N)N)NC(=O)[C@H](CCSC)NC(=O)[C@@H](NC(=O)[C@H](CCSC)NC(=O)[C@H](C)NC(=O)[C@H](CC(C)C)NC(=O)[C@H](CCC(N)=O)NC(=O)[C@H](CCCCN)NC(=O)[C@H](CCCCN)NC(=O)[C@@H](NC(=O)[C@@H](N)CCCNC(=N)N)[C@@H](C)O)C(C)C)C(C)C)C(C)C)[C@@H](C)CC)[C@@H](C)CC)C(=O)N[C@H](C(=O)N[C@@H](CO)C(=O)N[C@@H](CCCCN)C(=O)N[C@@H](CCCCN)C(=O)N[C@@H](CC(N)=O)C(=O)N[C@@H](CCCCN)C(=O)N[C@@H](CC(=O)O)C(=O)N[C@H](C(=O)N[C@H](C(=O)N[C@H](C(=O)N[C@H](C(=O)N[C@@H](C)C(=O)N[C@@H](CC(N)=O)C(=O)N[C@@H](C)C(=O)N[C@H](C(=O)N[C@@H](Cc1ccccc1)C(=O)N[C@H](C(=O)N[C@@H](CCCCN)C(=O)O)C(C)C)C(C)C)C(C)C)[C@@H](C)O)C(C)C)[C@@H](C)CC)C(C)C", "cell line": "HaCaT", "observed": "cell viability", "method": "MTT", "CC50": "61.7 µM"}
{"Compound": "CC(C)(C)NC(=O)N[C@H](C(=O)N1C[C@H]2[C@@H]([C@H]1C(=O)NC(CC1CCC1)C(=O)C(N)=O)C2(C)C)C(C)(C)C (stereo partly shown)", "cell line": "HEK293T", "observed": "cell viability", "method": "MTT", "time": "48 (unit not given)", "CC50": "> 50 µM"}
{"Compound": "CCCCCc1nc(N)[nH]c(=O)c1Br", "cell line": "CRFK", "observed": "cytotoxicity", "method": "MTS", "CC50": "> 100 µM"}
{"Compound": "CC[C@H](C)[C@H](N)C(=O)N1CCC[C@H]1C(=O)N[C@@H](CC(C)C)C(=O)N[C@@H](Cc1ccccc1)C(=O)N[C@@H](CCCNC(=N)N)C(=O)N[C@@H](CCCNC(=N)N)C(=O)N[C@@H](Cc1ccccc1)C(=O)NCC(=O)N[C@@H](CCCNC(=N)N)C(=O)N[C@@H](CCC(N)=O)C(=O)N[C@@H](CCCNC(=N)N)C(=O)N[C@@H](CCCCN)C(=O)N[C@H](C(=O)NCC(=O)NCC(=O)N[C@@H](CCCNC(=N)N)C(=O)NCC(=O)N[C@@H](CCCNC(=N)N)C(=O)N[C@H](C(=O)N[C@H](C(=O)N[C@@H](CO)C(=O)N1CCC[C@H]1C(=O)N[C@@H](Cc1ccc(O)cc1)C(=O)N[C@@H](CCCNC(=N)N)C(=O)N[C@H](C(=O)N1CCC[C@H]1C(=O)N[C@H](C(=O)N[C@@H](CC(C)C)C(=O)N[C@@H](CCCNC(=N)N)C(=O)N[C@@H](CCCNC(=N)N)C(=O)N[C@@H](Cc1c[nH]cn1)C(=O)N[C@@H](CCCNC(=N)N)C(=O)N[C@@H](Cc1ccc(O)cc1)C(=O)N[C@@H](CO)C(=O)N[C@H](C(=O)N[C@@H](Cc1ccccc1)C(=O)N[C@@H](CCCNC(=N)N)C(=O)O)[C@@H](C)CC)C(C)C)[C@@H](C)O)[C@@H](C)CC)[C@@H](C)CC)[C@@H](C)CC", "cell line": "HaCaT", "observed": "cell viability", "method": "MTT", "CC50": "56.6 µM"}
{"Compound": "CC[C@@H]1C[C@]1(NC(=O)[C@@H]1C[C@@H]2CN1C(=O)[C@H](C(C)(C)C)NC(=O)OCC(C)(C)CCCCc1cccc3c1CN(C3)C(=O)O2)C(=O)NS(=O)(=O)C1CC1", "cell line": "HEK293T", "observed": "cell viability", "method": "MTT", "time": "48 (unit not given)", "CC50": "> 50 µM"}
{"Compound": "CC[C@H](C)[C@H](NC(=O)[C@H](CC(C)C)NC(=O)[C@@H]1CCCN1C(=O)[C@H](CCC(N)=O)NC(=O)[C@H](CCCCN)NC(=O)[C@H](Cc1c[nH]cn1)NC(=O)[C@H](CS)NC(=O)[C@H](CCCNC(=N)N)NC(=O)[C@H](CCCCN)NC(=O)[C@H](CO)NC(=O)[C@H](CC(C)C)NC(=O)[C@H](CO)NC(=O)[C@H](Cc1ccccc1)NC(=O)[C@H](CC(C)C)NC(=O)[C@H](CCCCN)NC(=O)[C@H](Cc1c[nH]cn1)NC(=O)[C@@H](NC(=O)[C@@H](NC(=O)[C@H](CCCCN)NC(=O)[C@H](CCC(N)=O)NC(=O)[C@H](C)NC(=O)[C@H](CCCCN)NC(=O)[C@H](CC(C)C)NC(=O)[C@H](Cc1ccccc1)NC(=O)[C@H](CC(C)C)NC(=O)[C@H](CCC(N)=O)NC(=O)[C@@H](N)CCCCN)[C@@H](C)CC)C(C)C)C(=O)N[C@@H](CO)C(=O)N[C@@H](CC(C)C)C(=O)N1CCC[C@H]1C(=O)N[C@@H](CCCNC(=N)N)C(=O)N[C@@H](CCC(N)=O)C(=O)N[C@@H](CCCNC(=N)N)C(=O)O", "cell line": "HaCaT", "observed": "cell viability", "method": "MTT", "CC50": "31.4 µM"}
{"Compound": "C[C@H](Cn1cnc2c(N)ncnc21)OCP(=O)(O)O", "cell line": "MT-4", "observed": "cell viability", "CC50": "> 250 µM"}
{"note": "Excerpt of the above:"}
{"Compound": "CC[C@H](C)[C@H](NC(=O)[C@H](C)NC(=O)[C@H](CCCCN)NC(=O)[C@H](CC(N)=O)NC(=O)[C@@H](NC(=O)[C@H](CCCCN)NC(=O)[C@H](CCCCN)NC(=O)[C@H](CC(C)C)NC(=O)[C@@H](NC(=O)[C@H](CCCCN)NC(=O)CNC(=O)[C@@H](NC(=O)CNC(=O)[C@H](CC(N)=O)NC(=O)[C@@H](NC(=O)CNC(=O)[C@H](Cc1ccc(O)cc1)NC(=O)[C@H](CCCNC(=N)N)NC(=O)[C@H](CCSC)NC(=O)[C@@H](NC(=O)[C@H](CCSC)NC(=O)[C@H](C)NC(=O)[C@H](CC(C)C)NC(=O)[C@H](CCC(N)=O)NC(=O)[C@H](CCCCN)NC(=O)[C@H](CCCCN)NC(=O)[C@@H](NC(=O)[C@@H](N)CCCNC(=N)N)[C@@H](C)O)C(C)C)C(C)C)C(C)C)[C@@H](C)CC)[C@@H](C)CC)C(=O)N[C@H](C(=O)N[C@@H](CO)C(=O)N[C@@H](CCCCN)C(=O)N[C@@H](CCCCN)C(=O)N[C@@H](CC(N)=O)C(=O)N[C@@H](CCCCN)C(=O)N[C@@H](CC(=O)O)C(=O)N[C@H](C(=O)N[C@H](C(=O)N[C@H](C(=O)N[C@H](C(=O)N[C@@H](C)C(=O)N[C@@H](CC(N)=O)C(=O)N[C@@H](C)C(=O)N[C@H](C(=O)N[C@@H](Cc1ccccc1)C(=O)N[C@H](C(=O)N[C@@H](CCCCN)C(=O)O)C(C)C)C(C)C)C(C)C)[C@@H](C)O)C(C)C)[C@@H](C)CC)C(C)C", "cell line": "HaCaT", "observed": "cell viability", "method": "MTT", "CC50": "61.7 µM"}
{"Compound": "CC(C)(C)NC(=O)N[C@H](C(=O)N1C[C@H]2[C@@H]([C@H]1C(=O)NC(CC1CCC1)C(=O)C(N)=O)C2(C)C)C(C)(C)C (stereo partly shown)", "cell line": "HEK293T", "observed": "cell viability", "method": "MTT", "time": "48 (unit not given)", "CC50": "> 50 µM"}
